Assay results collected from several papers.

CC(=O)O[C@H]1C(=O)[C@@]2(C)[C@H]([C@H](OC(=O)c3ccccc3)[C@]3(O)C[C@H](OC(=O)[C@H](O)[C@@H](NC(=O)c4ccccc4)c4ccccc4)C(C)=C1C3(C)C)[C@]1(OC(C)=O)CO[C@@H]1C[C@@H]2O — adverse event incidence (measured: aspartate aminotransferase increased; patients with advanced solid tumours; intravenous, dose not given, grade 1 and 2, possibly related to drug): 30%
Cc1cc(Nc2ccc(S(F)(F)(F)(F)F)cc2)n2nc(C(C)(F)F)nc2n1 — adverse event Nausea (Plasmodium vivax malaria patients; oral, 600 mg): 0%
Cc1ccc(Sc2ccccc2N2CCNCC2)c(C)c1 — adverse event incidence (TEAE abdominal distension; healthy adult men; oral, 40 mg single dose, 10 days): 0%
Cc1c(Cl)c(C)[n+]([O-])c(Cl)c1-c1noc(-c2cc(O)c(O)c([N+](=O)[O-])c2)n1 — adverse event incidence (measured: Moderate severity; healthy Chinese subjects; oral, 50 mg, 10 days): 0%
O=C1CCc2ccc(OCCCCN3CCN(c4cccc(Cl)c4Cl)CC3)cc2N1 — adverse event incidence (measured: Sedation; patients, CYP2D6 intermediate metabolizers; dose not given, long-acting oral or depot): 5.8%
FC(F)(F)c1ccc(CNc2ccc(Cc3c[nH]c4ncc(Cl)cc34)cn2)cn1 — adverse event incidence (measured: Diarrhoea; patients with advanced solid tumours; oral, dose not given, grade 3 and 4, possibly related to drug): 4%
CC(C)n1c(Nc2cccnc2)nc2cnc(Nc3ccc(N4CCN(C)CC4)cc3)nc21 — adverse event incidence (measured: Headache; healthy male subjects; oral, 100 mg, together with: gemfibrozil): 0%
CC[C@H](C)CCCCC(=O)N[C@@H](CCN)C(=O)N[C@H](C(=O)N[C@@H](CCN)C(=O)N[C@H]1CCNC(=O)[C@H]([C@@H](C)O)NC(=O)[C@H](CCN)NC(=O)[C@H](CCN)NC(=O)[C@H](CC(C)C)NC(=O)[C@@H](Cc2ccccc2)NC(=O)[C@H](CCN)NC1=O)[C@@H](C)O — adverse event incidence (measured: nervous system disorders; mild renal insufficiency patients; IV, 0.75 mg/kg): 71.4%

Repeated from above:
CC[C@H](C)CCCCC(=O)N[C@@H](CCN)C(=O)N[C@H](C(=O)N[C@@H](CCN)C(=O)N[C@H]1CCNC(=O)[C@H]([C@@H](C)O)NC(=O)[C@H](CCN)NC(=O)[C@H](CCN)NC(=O)[C@H](CC(C)C)NC(=O)[C@@H](Cc2ccccc2)NC(=O)[C@H](CCN)NC1=O)[C@@H](C)O — adverse event incidence (measured: nervous system disorders; mild renal insufficiency patients; IV, 0.75 mg/kg): 71.4%
